Assay results collected from several papers.
Each line is one published result; not all experiments were run side by side. Values joined by “and” are separate records of one study, mostly repeats; a detail may differ. ± gives the spread as reported. ≈ marks a conversion by molar mass, not a printed value.

| Compound | organism | test | system | setting | scale | measurement | value |
| --- | --- | --- | --- | --- | --- | --- | --- |
| Cc1c(CN(C)C(=O)/C=C/c2cnc3c(c2)CC(N)C(=O)N3)oc2ccccc12 (centres unmarked) | Escherichia coli | broth microdilution | AR-0349 | – | – | MIC | 2 µg/mL (≈ 5.12 µM) |
| Cc1cccc2c1N(C(=O)n1ccnn1)CC2 | Arabidopsis thaliana | – | kai2 mutant, seeds | 3 µM, 72 h | – | germination rate | 66.7% and 68% and 80.8% and 75% and 71.7% and 78% |
| CCCCCCCCCC(=O)N[C@@H](Cc1c[nH]c2ccccc12)C(=O)N[C@H](CC(N)=O)C(=O)N[C@@H](CC(=O)O)C(=O)N[C@@H]1C(=O)NCC(=O)N[C@@H](CCCNC(=O)OC2/C=C/CCCCC2)C(=O)N[C@@H](CC(=O)O)C(=O)N[C@H](C)C(=O)N[C@@H](CC(=O)O)C(=O)NCC(=O)N[C@H](CO)C(=O)N[C@@H]([C@H](C)CC(=O)O)C(=O)N[C@@H](CC(=O)c2ccccc2N)C(=O)O[C@@H]1C (some centres unmarked) | Staphylococcus aureus | isothermal microcalorimetry | MSSA | 3.0 µg/mL, 24 h, 37 °C | – | peak heat flow | 0 µW |
| CNCc1ccc2c(c1)N(C(=O)OCc1c(F)c(F)c(F)c(F)c1F)[C@H](CNC(=N)N)[C@H]2NC(=O)C(=O)Nc1ccc(Cl)c(F)c1 | Human immunodeficiency virus 1 | viral infection, Env pseudovirus | TZM-bl, C2101.c01 CRF01_AE | – | – | IC80 | 52600 nM |
| CC(C)(C)NCC(SS(=O)(=O)O)c1ccccc1 (centres unmarked) | Schistosoma mansoni | – | mice | 600 mg/kg single dose, dosed day 7, perfused 52 | – | male worms recovered | 11 worms per mouse and 16 worms per mouse and 28 worms per mouse and 19 worms per mouse |
| c1ccc(CC(c2c[nH]c3ccccc23)c2c[nH]c3ccccc23)cc1 | Clostridioides difficile | microbial growth, absorbance | – | – | – | IC50 | > 50000 nM |
| C=C[C@]1(C)C[C@@H](OC(=O)CSc2ccc(NC(=O)c3ccco3)cc2)[C@]2(C)[C@H](C)CC[C@]3(CCC(=O)[C@H]32)[C@@H](C)[C@@H]1O | Mycoplasma gallisepticum | – | infected chickens, lung | intramuscular, 60 mg/kg daily x3, 72 h | – | lung mycoplasma count | 2.1 log10 CFU/mL and 3.13 log10 CFU/mL and 3.21 log10 CFU/mL and 4.57 log10 CFU/mL and 3.9 log10 CFU/mL and 3.65 log10 CFU/mL and 4.38 log10 CFU/mL and 3.92 log10 CFU/mL |
| c1ccc(CN2CCOCCOCCN(CCCCCCCCCCCCN3CCOCCOCCN(CCCCCCCCCCCCN4CCOCCOCCN(Cc5ccccc5)CCOCCOCC4)CCOCCOCC3)CCOCCOCC2)cc1 | Klebsiella pneumoniae | – | ATCC BAA-2146 | 2.5 µM, with: tetracycline | – | FIC index | 0.57 |
| N=C(N)NCCC[C@@H]1NC(=O)[C@H](CCCNC(=N)N)NC(=O)[C@@H](CCCNC(=N)N)NC(=O)[C@@H](CCCNC(=N)N)NC(=O)[C@@H](C(c2ccccc2)c2ccccc2)NC(=O)[C@H](Cc2c[nH]c3ccccc23)NC(=O)[C@@H](C(c2ccccc2)c2ccccc2)NC1=O | Candida albicans | – | ATCC 60193 | 1 x MIC, 24 h, preformed biofilm | – | biofilm mass reduction | 46% |
| CC1(C)[C@H](NC(=O)/C(=N\OCc2c(Cl)cccc2Cl)c2nsc(N)n2)C(=O)N1OS(=O)(=O)O | Providencia rettgeri | agar dilution | ATCC 31052, susceptible | – | – | MIC | 0.5 µg/mL (≈ 0.927 µM) |
| COC1C=COC2(C)Oc3c(C)c(O)c4c(c3C2=O)C2=NC3(CCN(CC(C)C)CC3)NC2=C(NC(=O)C(C)=CC=CC(C)C(O)C(C)C(O)C(C)C(OC(=O)Nc2cscn2)C1C)C4=O (centres unmarked) | Mycobacteroides abscessus | intracellular growth, visual read | THP-1 derived macrophages, ATCC 19977 | – | – | IC90 | 185 nM |
| CN(Cc1ccc(C2(C(F)(F)F)CCC2)cc1)Cc1cccc2ccccc12 | Trichophyton mentagrophytes | microbial growth, disc diffusion | ATCC18748 | 0.032 µg/mL, 72 h | – | inhibition zone | 25.5 mm |
| COC(=O)c1cnc(-c2cnccn2)cc1C(=O)OC.COC(=O)c1cnc(-c2cnccn2)cc1C(=O)OC.F[P-](F)(F)(F)(F)F.[Ag+] | Candida albicans | biofilm formation, crystal violet staining | ATCC 10231 | 3.5 µg/mL | – | inhibition | 51 ± 5% |
| CC1(C)[C@H](NC(=O)/C(=N\OCC(=O)N2CCC(C(=O)O)CC2)c2csc(N)n2)C(=O)N1OS(=O)(=O)O | Providencia rettgeri | agar dilution | ATCC 31052, susceptible | – | – | MIC | 0.125 µg/mL (≈ 0.228 µM) |
| COC1C=COC2(C)Oc3c(C)c(O)c4c(c3C2=O)C2=NC3(CCN(CC(C)C)CC3)NC2=C(NC(=O)C(C)=CC=CC(C)C(O)C(C)C(O)C(C)C(OC(=O)c2cccnc2)C1C)C4=O (centres unmarked) | Mycobacteroides abscessus | intracellular growth, Hill fit | THP-1 derived macrophages, ATCC 19977 | – | – | IC50 | 34 nM |
| c1ccc2c(Cc3c[nH]c4ccccc34)c[nH]c2c1 | Clostridioides difficile | microbial growth, absorbance | – | – | – | IC50 | > 50000 nM |
| O=C1C(=C(O)C=Cc2ccccc2)C(=O)C2(C(=O)OCc3ccccc3)CSC(c3ccccc3)N12 (centres unmarked) | Streptomyces | bacterial growth, broth dilution | Mueller-Hinton broth | 24 h, 35 °C | – | MIC | 7.81 µg/mL (≈ 15.7 µM) |
| CCCCNCCO.O=C(O)C(Cl)Cl | Xanthium sibiricum | – | – | 15 mg/mL, 21 days, pre-emergence, greenhouse | – | herbicidal inhibition | 0% |
| CC(C)[C@H](NC(=O)OCc1ccccc1)C(=O)N(C)[C@@H](Cc1ccc(OC(C)(C)C)cc1)C(=O)Nc1ccccc1C(=O)N[C@@H](C)C(=O)O | Candida albicans | potentiator, broth microdilution | ATCC 90029 | 8.0 µg/mL, with: amphotericin B | baseline: amphotericin B alone | fold potentiation | 16 |
| Cc1ccc(C(NC(=O)c2cc(-c3ccccc3)n(-c3ccccc3)n2)c2ccncc2)cc1 (centres unmarked) | Dengue virus | viral replication, inhibitor, imaging | Vero, DENV2 | 12.5 µM | – | inhibition | > 60% |
| Cc1[nH]c2ccccc2c1CC(=O)N[C@@H](Cc1ccccc1)C(=O)N(C)c1ccccc1 | human immunodeficiency virus 1 | viral replication | NL4-3 with subtype AE gag/pol | – | – | EC50 | 500 ± 100 nM |
| C=C(NC(=O)c1csc(-c2nc3c(cc2O)-c2nc(cs2)C(=O)NC(C(C)O)C(=O)NC(=C(C)OC)c2nc(cs2)C(=O)NC2c4nc(cs4)C(=O)NC(COC(=O)c4c5c6c(cccc6n4O)COC(=O)C(OC4CC(C)(O)C(N(C)C)C(C)O4)C2OC5)c2nc-3cs2)n1)C(N)=O (centres unmarked) | Streptococcus pneumoniae | – | -4, immunocompromised mice, lung | 8 mg/kg/day once daily, 24 h post-dose | – | lung bacterial load | 5 log10 CFU/lung |
| FC(F)(F)c1cccc(CNc2nc(NC3CCN(Cc4ccccc4)CC3)c3nc[nH]c3n2)c1 | Cryptococcus neoformans | RNA-seq, measured: CNAG_05316 | wild type | 48 µg/mL, 3 h | baseline: untreated wild type | log2 fold change | 0.368 |

Some of these lines once more:
| Compound | organism | test | system | setting | scale | measurement | value |
| --- | --- | --- | --- | --- | --- | --- | --- |
| FC(F)(F)c1cccc(CNc2nc(NC3CCN(Cc4ccccc4)CC3)c3nc[nH]c3n2)c1 | Cryptococcus neoformans | RNA-seq, measured: CNAG_05316 | wild type | 48 µg/mL, 3 h | baseline: untreated wild type | log2 fold change | 0.368 |
| CC1(C)[C@H](NC(=O)/C(=N\OCc2c(Cl)cccc2Cl)c2nsc(N)n2)C(=O)N1OS(=O)(=O)O | Providencia rettgeri | agar dilution | ATCC 31052, susceptible | – | – | MIC | 0.5 µg/mL (≈ 0.927 µM) |
| O=C1C(=C(O)C=Cc2ccccc2)C(=O)C2(C(=O)OCc3ccccc3)CSC(c3ccccc3)N12 (centres unmarked) | Streptomyces | bacterial growth, broth dilution | Mueller-Hinton broth | 24 h, 35 °C | – | MIC | 7.81 µg/mL (≈ 15.7 µM) |
